Published values of several laboratories.
Parts stem from different laboratories: compare values within a part only. Several values in a cell are separate wells, animals, samples, runs or records.
Sequence of UniProt P42681 (whole entry, looked up): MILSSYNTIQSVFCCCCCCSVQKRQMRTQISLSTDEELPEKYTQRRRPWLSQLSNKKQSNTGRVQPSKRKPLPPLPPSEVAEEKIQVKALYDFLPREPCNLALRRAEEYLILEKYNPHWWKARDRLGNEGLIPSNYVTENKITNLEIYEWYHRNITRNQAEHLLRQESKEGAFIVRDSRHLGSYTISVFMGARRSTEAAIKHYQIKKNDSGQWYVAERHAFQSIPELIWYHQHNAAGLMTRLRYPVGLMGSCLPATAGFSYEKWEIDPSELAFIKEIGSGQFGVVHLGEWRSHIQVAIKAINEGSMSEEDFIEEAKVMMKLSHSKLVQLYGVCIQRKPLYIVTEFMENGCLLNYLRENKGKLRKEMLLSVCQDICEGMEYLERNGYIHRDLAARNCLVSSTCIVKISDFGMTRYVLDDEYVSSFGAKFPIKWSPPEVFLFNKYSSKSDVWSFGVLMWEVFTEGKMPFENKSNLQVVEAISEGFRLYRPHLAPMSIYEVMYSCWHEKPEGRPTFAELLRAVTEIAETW
Sequence of UniProt Q02750 (whole entry, looked up): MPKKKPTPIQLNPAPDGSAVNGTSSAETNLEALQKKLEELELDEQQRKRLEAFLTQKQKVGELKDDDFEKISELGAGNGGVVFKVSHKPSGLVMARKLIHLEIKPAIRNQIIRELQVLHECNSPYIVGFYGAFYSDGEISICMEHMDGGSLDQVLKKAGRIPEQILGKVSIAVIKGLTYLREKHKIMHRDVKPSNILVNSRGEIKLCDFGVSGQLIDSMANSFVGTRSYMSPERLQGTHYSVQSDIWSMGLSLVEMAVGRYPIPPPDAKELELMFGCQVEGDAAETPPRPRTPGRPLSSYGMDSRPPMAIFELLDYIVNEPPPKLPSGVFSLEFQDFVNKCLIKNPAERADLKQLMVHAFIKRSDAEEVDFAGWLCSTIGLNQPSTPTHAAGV
Sequence of UniProt Q9BYT3 (whole entry, looked up): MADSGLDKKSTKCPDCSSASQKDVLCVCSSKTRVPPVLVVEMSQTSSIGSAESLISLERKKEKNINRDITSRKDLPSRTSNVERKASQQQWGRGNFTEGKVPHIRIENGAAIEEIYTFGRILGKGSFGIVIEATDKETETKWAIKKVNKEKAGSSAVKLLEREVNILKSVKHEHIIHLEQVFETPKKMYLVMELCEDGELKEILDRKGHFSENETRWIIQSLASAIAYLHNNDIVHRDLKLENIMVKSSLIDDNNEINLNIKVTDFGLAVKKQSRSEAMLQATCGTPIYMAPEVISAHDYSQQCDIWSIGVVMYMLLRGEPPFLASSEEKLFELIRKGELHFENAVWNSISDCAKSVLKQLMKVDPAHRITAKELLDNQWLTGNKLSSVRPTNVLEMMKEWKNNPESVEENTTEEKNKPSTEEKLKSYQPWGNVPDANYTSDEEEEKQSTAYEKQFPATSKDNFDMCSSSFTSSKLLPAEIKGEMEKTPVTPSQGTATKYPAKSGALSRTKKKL
Sequence of UniProt P27448 (whole entry, looked up): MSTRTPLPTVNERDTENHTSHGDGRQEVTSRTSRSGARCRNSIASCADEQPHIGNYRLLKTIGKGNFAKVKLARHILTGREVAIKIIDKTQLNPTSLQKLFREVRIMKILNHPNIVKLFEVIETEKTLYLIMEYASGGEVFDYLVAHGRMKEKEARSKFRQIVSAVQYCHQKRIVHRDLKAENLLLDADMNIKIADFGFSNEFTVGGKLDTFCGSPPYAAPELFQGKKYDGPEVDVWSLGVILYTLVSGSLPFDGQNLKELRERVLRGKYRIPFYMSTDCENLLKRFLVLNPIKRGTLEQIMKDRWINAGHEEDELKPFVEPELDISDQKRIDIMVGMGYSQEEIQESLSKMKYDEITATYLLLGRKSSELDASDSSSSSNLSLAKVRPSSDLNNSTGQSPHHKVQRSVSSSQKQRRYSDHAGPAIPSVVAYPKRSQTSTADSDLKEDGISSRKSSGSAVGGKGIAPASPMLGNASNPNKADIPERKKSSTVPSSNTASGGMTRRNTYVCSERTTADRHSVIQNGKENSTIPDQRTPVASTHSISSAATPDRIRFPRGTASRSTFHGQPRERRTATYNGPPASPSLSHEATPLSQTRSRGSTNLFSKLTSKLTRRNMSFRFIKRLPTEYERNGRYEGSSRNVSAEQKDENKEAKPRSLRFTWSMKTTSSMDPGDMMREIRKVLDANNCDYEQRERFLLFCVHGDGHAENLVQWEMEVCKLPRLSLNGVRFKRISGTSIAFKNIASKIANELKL
Sequence of UniProt P41240 (whole entry, looked up): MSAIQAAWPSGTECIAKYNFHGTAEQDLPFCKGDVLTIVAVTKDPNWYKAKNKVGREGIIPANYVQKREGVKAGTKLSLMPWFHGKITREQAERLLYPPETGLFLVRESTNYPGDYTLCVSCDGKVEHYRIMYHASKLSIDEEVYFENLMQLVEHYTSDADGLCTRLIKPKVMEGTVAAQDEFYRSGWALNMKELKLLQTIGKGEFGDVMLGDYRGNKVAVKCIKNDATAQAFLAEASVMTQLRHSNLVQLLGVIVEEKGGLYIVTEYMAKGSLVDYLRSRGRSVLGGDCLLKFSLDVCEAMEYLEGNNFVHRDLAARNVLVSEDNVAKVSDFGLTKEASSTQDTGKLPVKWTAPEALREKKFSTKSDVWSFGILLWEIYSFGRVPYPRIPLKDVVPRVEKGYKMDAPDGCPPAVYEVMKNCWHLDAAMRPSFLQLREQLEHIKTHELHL
Sequence of UniProt Q6PHR2 (whole entry, looked up): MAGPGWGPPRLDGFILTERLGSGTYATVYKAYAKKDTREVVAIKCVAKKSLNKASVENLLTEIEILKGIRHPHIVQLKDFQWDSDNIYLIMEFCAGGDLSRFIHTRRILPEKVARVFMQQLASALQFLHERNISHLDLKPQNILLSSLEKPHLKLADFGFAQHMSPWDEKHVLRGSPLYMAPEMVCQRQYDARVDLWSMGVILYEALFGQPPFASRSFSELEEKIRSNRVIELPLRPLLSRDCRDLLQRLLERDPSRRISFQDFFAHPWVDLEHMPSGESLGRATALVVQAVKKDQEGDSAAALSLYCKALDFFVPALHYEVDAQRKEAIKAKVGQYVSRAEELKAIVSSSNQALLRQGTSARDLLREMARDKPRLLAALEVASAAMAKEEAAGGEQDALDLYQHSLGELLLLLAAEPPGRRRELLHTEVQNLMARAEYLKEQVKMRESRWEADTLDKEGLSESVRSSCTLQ
Sequence of UniProt P42336 (whole entry, unmodified, looked up): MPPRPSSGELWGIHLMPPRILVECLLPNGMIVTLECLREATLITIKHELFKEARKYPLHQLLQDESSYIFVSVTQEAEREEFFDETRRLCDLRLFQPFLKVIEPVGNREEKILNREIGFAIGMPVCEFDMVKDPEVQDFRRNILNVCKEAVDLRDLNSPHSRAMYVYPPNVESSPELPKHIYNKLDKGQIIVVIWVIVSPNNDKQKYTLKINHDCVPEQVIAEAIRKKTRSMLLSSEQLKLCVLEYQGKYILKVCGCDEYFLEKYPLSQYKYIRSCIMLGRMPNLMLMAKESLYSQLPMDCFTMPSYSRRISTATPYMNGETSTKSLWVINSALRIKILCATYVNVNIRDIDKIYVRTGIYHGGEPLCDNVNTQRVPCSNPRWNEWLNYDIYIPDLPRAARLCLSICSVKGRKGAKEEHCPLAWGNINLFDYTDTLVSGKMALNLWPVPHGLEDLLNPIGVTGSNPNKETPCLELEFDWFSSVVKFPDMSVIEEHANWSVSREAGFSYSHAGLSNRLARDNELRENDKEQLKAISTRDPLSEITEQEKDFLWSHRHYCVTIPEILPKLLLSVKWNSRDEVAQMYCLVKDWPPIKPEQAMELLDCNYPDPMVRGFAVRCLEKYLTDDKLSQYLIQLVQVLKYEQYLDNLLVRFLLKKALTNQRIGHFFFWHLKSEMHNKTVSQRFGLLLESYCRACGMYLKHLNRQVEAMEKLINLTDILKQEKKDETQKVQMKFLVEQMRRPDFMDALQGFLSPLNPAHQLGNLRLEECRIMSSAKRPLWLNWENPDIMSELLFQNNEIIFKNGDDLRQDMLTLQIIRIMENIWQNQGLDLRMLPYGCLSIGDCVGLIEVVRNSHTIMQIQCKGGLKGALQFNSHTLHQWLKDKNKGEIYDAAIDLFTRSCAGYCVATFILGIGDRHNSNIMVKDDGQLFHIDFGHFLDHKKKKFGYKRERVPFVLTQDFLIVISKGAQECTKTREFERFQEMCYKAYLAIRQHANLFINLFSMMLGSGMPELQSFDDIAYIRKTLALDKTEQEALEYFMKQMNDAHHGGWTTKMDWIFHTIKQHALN

Set 1
SMILES: Cn1cncc1[C@@](O)(COc1ccc(C#N)cc1-c1ccc(OC(F)(F)F)cc1)c1ccc(C#N)cc1
Method: competition with immobilised ligand
Concentration: 1 µM
target	effect on	remaining binding
STK33 (Homo sapiens, UniProt Q9BYT3)	cell-free assay	69%
CSK (Homo sapiens, UniProt P41240)	cell-free assay	100%
STK39 (Homo sapiens, UniProt Q9UEW8)	cell-free assay	100%
MAP2K1 (Homo sapiens, UniProt Q02750)	cell-free assay	89%
Tyrosine-protein kinase ABL1, phosphorylated (ABL1, Homo sapiens, UniProt P00519, F317L)	cell-free assay	100%
CDKL1 (Homo sapiens, UniProt Q00532)	binding	89%
ULK3 (Homo sapiens, UniProt Q6PHR2)	cell-free assay	78%
PRKG2 (Homo sapiens, UniProt Q13237)	cell-free assay	87%
BMPR2 (Homo sapiens, UniProt Q13873)	cell-free assay	100%
PIM3 (Homo sapiens, UniProt Q86V86)	cell-free assay	100%
MARK3 (Homo sapiens, UniProt P27448)	cell-free assay	93%
MAP3K2 (Homo sapiens, UniProt Q9Y2U5)	cell-free assay	100%
TXK (Homo sapiens, UniProt P42681)	binding	85%
MAP2K5 (Homo sapiens, UniProt Q13163)	cell-free assay	88%
COQ8B (Homo sapiens, UniProt Q96D53)	cell-free assay	100%
PIK3CA (Homo sapiens, UniProt P42336, C420R)	cell-free assay	90%

Set 2
SMILES: CNC(=O)c1ccc(-c2cnn3ccc(C(=O)N(C)c4ccc(Cl)c(C(=O)OC)c4)cc23)cc1
Organism: Cryptosporidium parvum
Method: time-kill
Cell line: HCT-8
Strain: nanoluciferase-expressing
Relative to: DMSO control
concentration	time	luminescence remaining
0.2469 µM	48 h	10.9% and 11.4%
2.222 µM	72 h	10.3% and 9.78%
0.00914 µM	24 h	33.1% and 40.2%
0.00102 µM	8 h	88.2% and 82%
20 µM	8 h	86% and 89.2%
0.7407 µM	48 h	11.2% and 10.4%
0.7407 µM	72 h	10.5% and 11.4%
0.00305 µM	0 h	107% and 102% and 85% and 111% and 135% and 87.2% and 96.3% and 119%
2.222 µM	4 h	98.1% and 126%

Set 3
Cell line: A-375
Concentration: 100 µM
Time: 36 h
Compound	viability
Cc1cccc(C)c1N=C1NCCCS1	114%
CC(O)(CS(=O)(=O)c1ccc(F)cc1)C(=O)Nc1ccc(C#N)c(C(F)(F)F)c1 (stereo not drawn)	43.6%
C=C1CC[C@@]2(O)[C@H]3Cc4ccc(O)c5c4[C@@]2(CCN3CC2CC2)[C@H]1O5	110%
C=CC[C@]1(O)CC[C@H]2[C@@H]3CCC4=CCCC[C@@H]4[C@H]3CC[C@@]21C	1.54%

Further values, each from its own experiment
CAMK2A: Calcium/calmodulin-dependent protein kinase type II subunit alpha (CAMK2A, Homo sapiens, UniProt Q9UQM7)
Sequence of UniProt Q9UQM7 (whole entry, looked up): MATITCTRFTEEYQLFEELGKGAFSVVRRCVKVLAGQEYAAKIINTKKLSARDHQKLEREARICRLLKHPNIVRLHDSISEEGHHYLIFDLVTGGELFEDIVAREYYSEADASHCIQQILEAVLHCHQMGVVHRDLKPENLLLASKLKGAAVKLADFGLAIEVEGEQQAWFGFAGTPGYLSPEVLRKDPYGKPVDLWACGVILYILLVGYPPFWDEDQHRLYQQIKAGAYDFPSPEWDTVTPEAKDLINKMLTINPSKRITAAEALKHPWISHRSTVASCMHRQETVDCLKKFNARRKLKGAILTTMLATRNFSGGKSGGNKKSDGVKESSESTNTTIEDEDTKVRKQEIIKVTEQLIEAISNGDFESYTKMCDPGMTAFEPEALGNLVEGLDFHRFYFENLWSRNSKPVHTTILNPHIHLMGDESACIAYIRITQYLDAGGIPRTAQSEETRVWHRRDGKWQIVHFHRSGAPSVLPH
SMILES	tested on	assay	system	conditions	endpoint	result
N#C[C@H](O[C@@H]1O[C@H](CO[C@@H]2O[C@H](CO)[C@@H](O)[C@H](O)[C@H]2O)[C@@H](O)[C@H](O)[C@H]1O)c1ccccc1	CAMK2A	enzyme activity, inhibitor	–	10 µM	inhibition	25%
CN1CCN(C(=O)Cc2ccc(Br)cc2)CC1	–	–	mouse, microsomes or S9	2 µM, 0.5 h	remaining compound	6.05%
CC[C@H]1/C=C/C=C/C[C@@H](C)[C@H](O)[C@@](C)(O)C(=O)[C@@H](C)[C@H](O)[C@@H](C)C(=O)[C@@H](C)[C@H](O)[C@@H](C)/C=C/C(=O)O[C@@H]2[C@H](C)[C@H](CC1)O[C@]1(CC[C@H](C)[C@H](C[C@@H](C)O)O1)[C@H]2C	CAMK2A	enzyme activity, inhibitor	–	10 µM	inhibition	-41%
COc1cc(C2NCc3ccccc3-n3cccc32)ccc1O (stereo not drawn)	–	–	mouse, microsomes or S9	2 µM, 0.5 h	remaining compound	23.3%

Excerpt of the above (set 1):
target	effect on	remaining binding
BMPR2 (Homo sapiens, UniProt Q13873)	cell-free assay	100%
PIM3 (Homo sapiens, UniProt Q86V86)	cell-free assay	100%
MARK3 (Homo sapiens, UniProt P27448)	cell-free assay	93%
